Assay results collected from several papers.
Each line is one published result; not all experiments were run side by side.

SMILES | test | test system | conditions | endpoint | value
Cc1cc(-c2nnc(N)nc2-c2ccc(F)cc2)cc(Cl)n1 | item: Hyperthyroidism | IO-naive mCRPC patients, male | oral, dose not given, treatment-related, grade ≥3 | patients with immune-mediated AE | 0%
C=CC(=O)Nc1cc(Nc2nccc(-c3cn(C)c4ccccc34)n2)c(OC)cc1N(C)CCN(C)C | item: treatment-related grade ≥3 Anemia | EGFR-mutant MET-altered NSCLC | oral, dose not given | patients with adverse events | 0%
COc1ccc([C@@H](O)c2cc(-c3ncnc4cc(N5CCOCC5)ccc34)c(F)cc2Cl)nn1 | item: Anemia | locally advanced rectal cancer patients | dose not given, all dose groups, added: capecitabine plus radiotherapy | patients with TEAE | 32%
Cc1cc(NC2CCN(C(=O)OC3CCN(C(=O)/C=C/CN(C)C)C3)CC2)n2ncc(C(C)C)c2n1 (centres unmarked) | Phase I dose escalation CTCAE v4.0, item: abdominal distension | patients with advanced solid tumours | dose not given, TIW dosing grade 3 or higher | patients with adverse event | 0%
CNC(=O)c1cc(Oc2ccc(NC(=O)Nc3cc(C(C)(C)C)nn3-c3ccc4ncccc4c3)c(F)c2)ccn1 | – | patients | oral, dose not given, cycles 1 and 2, Low AUC subgroup | patients with nervous system disorders | 20%
CC(C)C[C@H](NC(=O)CNC(=O)c1cc(Cl)ccc1Cl)B(O)O | item: Diarrhoea, all grades | newly diagnosed multiple myeloma patients | oral, dose not given, maintenance phase, new onset, cycle 17 or later | patients with adverse event | 33%
FC(F)(F)c1ccc(CNc2ccc(Cc3c[nH]c4ncc(Cl)cc34)cn2)cn1 | item: blood alkaline phosphatase increased | advanced solid tumour patients | oral, 1000 mg/day, all grades, all cohorts | patients with treatment-related adverse event | 6%
COc1cc(Nc2ncc3c(n2)-c2ccc(Cl)cc2C(c2c(F)cccc2OC)=NC3)ccc1C(=O)O | item: increased AST, grade 2 | cancer patients, phase 1/2 | oral, dose not given, added: pembrolizumab | patients with adverse event | 4%
CCOc1c([C@H](C)n2nc(C)c3c(N)ncnc32)cc(Cl)c(F)c1[C@@H]1CNC(=O)C1 | item: QTcF ≤450 ms | previously treated B-cell malignancy | oral, 5 mg once daily, overall population | patients | 100%
COc1cc2nccc(Oc3ccc(NC(=O)c4cc5c(n(-c6ccccc6)c4=O)CCCC5=O)nc3)c2cc1OC | – | patients with relapsed/refractory AML | oral, 6 mg once daily | patients with TEAEs | 100%
CNC(=O)c1ccc(-c2cnc3ncc(Cc4ccc5ncccc5c4)n3n2)cc1F | item: Pyrexia | cancer patients | oral, 600 mg twice daily, all expansion cohorts, grade 3-4 | patients with adverse event | 3%
C[C@@H](Nc1cc(F)cc(F)c1)c1cc(C(=O)N(C)C)cc2c(=O)cc(N3CCOCC3)oc12 | item: Fatigue | advanced solid tumour patients | oral, dose not given, dose finding | patients discontinuing for AE | 0%
O=C(Nc1nc2cccc(-c3ccc(CN4CCS(=O)(=O)CC4)cc3)n2n1)C1CC1 | – | rheumatoid arthritis patients | oral, 100 mg twice daily, 4 weeks, TEAE regardless of relatedness | patients with Dyspepsia | 0%
NC(=O)N1c2ccccc2C=Cc2ccccc21 | – | male patients | oral, dose not given, on-treatment adverse events | patients with abnormal dreams | 0%
